# Experimental data gathered from unrelated publications.
# Each line is one published result; not all experiments were run side by side. Values joined by “and” are separate records of one study, mostly repeats; a detail may differ. ± marks the error that the study gave.
# Chain of UniProt Q16774 (whole entry, looked up): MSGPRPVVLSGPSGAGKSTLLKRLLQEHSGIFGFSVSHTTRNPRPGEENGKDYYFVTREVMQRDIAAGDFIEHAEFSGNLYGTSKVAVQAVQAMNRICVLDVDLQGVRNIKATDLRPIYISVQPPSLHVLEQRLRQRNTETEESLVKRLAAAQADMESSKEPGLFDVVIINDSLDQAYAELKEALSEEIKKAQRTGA
# Chain of UniProt Q9HC35 (whole entry, looked up): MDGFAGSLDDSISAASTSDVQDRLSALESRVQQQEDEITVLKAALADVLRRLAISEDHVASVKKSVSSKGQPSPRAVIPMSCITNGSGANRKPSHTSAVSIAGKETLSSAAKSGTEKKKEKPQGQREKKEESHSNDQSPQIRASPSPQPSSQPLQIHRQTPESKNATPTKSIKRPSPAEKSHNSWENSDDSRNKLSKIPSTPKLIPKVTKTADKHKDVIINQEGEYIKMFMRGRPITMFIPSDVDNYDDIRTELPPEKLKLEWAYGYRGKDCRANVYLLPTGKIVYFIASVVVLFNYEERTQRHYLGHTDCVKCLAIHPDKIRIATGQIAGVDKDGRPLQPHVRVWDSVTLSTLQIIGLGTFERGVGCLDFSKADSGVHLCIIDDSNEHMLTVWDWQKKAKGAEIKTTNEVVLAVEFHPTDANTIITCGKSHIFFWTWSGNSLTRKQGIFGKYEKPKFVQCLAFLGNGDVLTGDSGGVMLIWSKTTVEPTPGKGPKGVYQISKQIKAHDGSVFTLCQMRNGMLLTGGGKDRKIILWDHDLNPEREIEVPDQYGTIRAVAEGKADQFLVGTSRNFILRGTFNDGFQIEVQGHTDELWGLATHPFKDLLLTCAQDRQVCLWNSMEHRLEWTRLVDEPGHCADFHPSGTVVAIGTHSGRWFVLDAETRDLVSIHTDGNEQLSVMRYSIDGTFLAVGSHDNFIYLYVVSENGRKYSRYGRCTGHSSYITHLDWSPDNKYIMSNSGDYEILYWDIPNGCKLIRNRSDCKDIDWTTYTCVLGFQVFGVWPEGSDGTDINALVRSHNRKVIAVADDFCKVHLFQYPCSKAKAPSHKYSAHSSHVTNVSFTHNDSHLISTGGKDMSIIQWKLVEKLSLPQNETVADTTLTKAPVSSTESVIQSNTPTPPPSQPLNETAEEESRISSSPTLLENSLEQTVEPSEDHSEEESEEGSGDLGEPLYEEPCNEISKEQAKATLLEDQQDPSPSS
# Chain of UniProt Q64663 (whole entry, unmodified, looked up): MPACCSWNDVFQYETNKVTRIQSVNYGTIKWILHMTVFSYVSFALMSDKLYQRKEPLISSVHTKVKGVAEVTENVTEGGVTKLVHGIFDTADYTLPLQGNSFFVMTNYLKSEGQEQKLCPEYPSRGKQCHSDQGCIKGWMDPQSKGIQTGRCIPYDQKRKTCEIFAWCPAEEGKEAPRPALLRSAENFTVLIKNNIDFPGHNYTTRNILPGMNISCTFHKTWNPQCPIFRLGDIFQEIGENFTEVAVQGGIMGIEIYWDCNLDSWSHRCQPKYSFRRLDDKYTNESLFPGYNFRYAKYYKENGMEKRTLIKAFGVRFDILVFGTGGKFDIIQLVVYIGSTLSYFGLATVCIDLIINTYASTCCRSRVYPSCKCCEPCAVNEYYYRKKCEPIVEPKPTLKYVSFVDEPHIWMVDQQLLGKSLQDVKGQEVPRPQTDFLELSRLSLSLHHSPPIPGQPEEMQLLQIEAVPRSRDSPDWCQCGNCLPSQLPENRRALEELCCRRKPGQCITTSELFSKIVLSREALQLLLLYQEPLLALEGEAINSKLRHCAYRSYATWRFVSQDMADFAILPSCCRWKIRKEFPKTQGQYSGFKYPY
# Chain of UniProt Q9UM73 (whole entry, looked up): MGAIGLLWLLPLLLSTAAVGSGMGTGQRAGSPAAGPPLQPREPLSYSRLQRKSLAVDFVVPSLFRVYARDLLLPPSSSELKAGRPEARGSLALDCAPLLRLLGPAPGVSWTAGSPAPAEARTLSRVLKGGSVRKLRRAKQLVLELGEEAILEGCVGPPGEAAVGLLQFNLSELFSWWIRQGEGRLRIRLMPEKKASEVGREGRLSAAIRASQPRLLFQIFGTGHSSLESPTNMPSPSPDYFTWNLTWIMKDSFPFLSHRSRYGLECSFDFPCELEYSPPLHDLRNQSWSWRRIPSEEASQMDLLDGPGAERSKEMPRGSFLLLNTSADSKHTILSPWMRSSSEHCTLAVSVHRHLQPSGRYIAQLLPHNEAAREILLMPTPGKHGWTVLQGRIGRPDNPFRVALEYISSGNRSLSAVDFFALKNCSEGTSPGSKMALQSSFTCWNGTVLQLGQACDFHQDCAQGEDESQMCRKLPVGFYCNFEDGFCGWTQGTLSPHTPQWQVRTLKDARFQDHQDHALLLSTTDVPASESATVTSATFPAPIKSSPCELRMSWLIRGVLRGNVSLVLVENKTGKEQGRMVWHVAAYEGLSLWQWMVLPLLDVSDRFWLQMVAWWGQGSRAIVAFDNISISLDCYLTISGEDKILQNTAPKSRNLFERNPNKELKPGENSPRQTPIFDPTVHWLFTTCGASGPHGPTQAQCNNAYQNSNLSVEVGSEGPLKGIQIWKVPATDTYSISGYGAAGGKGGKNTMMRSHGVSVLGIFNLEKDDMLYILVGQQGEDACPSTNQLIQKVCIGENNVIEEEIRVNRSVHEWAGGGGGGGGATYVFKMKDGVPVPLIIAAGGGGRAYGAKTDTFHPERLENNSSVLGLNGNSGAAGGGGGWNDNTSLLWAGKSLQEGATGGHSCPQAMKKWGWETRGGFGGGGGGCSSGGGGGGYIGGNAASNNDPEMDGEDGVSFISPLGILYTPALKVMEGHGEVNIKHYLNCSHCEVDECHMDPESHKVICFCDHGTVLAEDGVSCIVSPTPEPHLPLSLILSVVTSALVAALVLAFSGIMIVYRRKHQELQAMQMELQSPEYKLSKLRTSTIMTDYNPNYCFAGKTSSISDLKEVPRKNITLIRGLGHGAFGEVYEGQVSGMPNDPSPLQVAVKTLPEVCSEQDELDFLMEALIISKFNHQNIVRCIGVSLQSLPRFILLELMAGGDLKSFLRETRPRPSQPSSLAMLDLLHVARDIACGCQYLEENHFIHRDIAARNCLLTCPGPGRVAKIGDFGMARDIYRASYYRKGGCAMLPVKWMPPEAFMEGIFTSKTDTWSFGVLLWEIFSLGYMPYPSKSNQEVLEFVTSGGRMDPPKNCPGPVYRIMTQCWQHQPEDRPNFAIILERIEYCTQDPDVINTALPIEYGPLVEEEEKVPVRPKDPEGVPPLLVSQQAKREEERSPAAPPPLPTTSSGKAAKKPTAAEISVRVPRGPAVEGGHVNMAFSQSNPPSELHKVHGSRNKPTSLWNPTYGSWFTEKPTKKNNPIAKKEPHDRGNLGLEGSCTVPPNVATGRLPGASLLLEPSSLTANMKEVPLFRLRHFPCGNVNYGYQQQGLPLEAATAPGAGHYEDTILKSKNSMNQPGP
# Chain of UniProt O15164 (whole entry, looked up): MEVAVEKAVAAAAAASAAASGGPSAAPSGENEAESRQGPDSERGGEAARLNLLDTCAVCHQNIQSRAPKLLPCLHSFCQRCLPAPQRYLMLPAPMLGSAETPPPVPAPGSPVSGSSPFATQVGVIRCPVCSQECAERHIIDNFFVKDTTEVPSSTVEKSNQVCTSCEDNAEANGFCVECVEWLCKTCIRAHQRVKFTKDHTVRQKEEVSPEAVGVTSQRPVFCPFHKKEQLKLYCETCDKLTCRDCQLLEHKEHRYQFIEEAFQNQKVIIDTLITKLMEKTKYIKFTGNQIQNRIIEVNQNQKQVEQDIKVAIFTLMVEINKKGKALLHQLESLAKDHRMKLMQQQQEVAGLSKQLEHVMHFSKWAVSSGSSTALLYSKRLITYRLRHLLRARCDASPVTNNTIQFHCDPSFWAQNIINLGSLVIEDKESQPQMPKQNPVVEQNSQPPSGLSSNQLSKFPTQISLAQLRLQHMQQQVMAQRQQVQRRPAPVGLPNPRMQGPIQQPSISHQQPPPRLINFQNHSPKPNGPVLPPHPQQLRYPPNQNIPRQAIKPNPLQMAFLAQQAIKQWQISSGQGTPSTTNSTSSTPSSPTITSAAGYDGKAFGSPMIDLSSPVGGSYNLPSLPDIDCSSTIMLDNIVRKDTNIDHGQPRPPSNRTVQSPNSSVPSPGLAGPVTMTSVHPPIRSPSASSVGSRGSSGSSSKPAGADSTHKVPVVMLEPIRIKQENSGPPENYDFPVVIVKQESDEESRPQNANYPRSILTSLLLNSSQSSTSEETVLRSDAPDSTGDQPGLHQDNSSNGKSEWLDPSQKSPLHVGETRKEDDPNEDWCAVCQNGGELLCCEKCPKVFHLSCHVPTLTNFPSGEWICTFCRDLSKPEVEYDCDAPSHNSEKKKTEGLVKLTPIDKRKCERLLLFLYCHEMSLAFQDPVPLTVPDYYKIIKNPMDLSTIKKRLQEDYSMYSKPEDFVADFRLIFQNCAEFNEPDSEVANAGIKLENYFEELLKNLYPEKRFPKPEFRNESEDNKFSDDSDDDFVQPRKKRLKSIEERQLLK
# Chain of UniProt P02769 (whole entry, unmodified, looked up): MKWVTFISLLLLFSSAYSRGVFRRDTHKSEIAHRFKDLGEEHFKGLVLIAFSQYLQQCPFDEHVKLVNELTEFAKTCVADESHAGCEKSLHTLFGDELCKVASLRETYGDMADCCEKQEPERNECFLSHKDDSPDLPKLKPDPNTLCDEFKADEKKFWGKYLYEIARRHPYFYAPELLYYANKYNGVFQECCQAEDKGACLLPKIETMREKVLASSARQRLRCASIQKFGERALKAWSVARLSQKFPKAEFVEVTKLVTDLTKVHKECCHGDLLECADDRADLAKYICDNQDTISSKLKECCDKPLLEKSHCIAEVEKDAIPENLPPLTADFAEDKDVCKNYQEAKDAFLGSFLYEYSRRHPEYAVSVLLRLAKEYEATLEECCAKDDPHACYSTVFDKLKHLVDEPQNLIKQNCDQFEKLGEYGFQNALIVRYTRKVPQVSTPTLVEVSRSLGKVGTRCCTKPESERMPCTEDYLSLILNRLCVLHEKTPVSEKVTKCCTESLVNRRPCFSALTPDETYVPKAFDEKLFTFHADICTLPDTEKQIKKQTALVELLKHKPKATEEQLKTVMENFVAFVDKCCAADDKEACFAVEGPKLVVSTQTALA
Compound,target or system,test,system,setting,scale,measurement,result
Cc1nc(CSc2nc(SCc3ccc(C(C)C)cc3)nc(=O)[nH]2)cs1,"TOP2A (Homo sapiens, UniProt P11388)",DNA relaxation,,31.25 µM,,mean relaxed DNA,99.9%
COc1cc(Nc2ncc3c(n2)-c2ccc(Cl)cc2C(c2c(F)cccc2OC)=NC3)ccc1C(=O)O,CLK2,kinase activity,,1 µM,,remaining activity,71%
C=CC(=O)N1C/C(=C\c2ccc([N+](=O)[O-])cc2)C(=O)/C(=C/c2ccc([N+](=O)[O-])cc2)C1,NanoBiT HiBiT/LgBiT luciferase,"inhibitor, HiBiT luminescence counterscreen",conditioned medium only,"1.66 µM, 24 h",reference: vehicle,luminescence signal reduction,-5.24%
Cc1nc(NC(=O)N2CCC[C@H]2C(N)=O)sc1-c1ccnc(C(C)(C)C(F)(F)F)c1,"PIK3CG (Homo sapiens, UniProt P48736)",KINOMEscan,,10 µM,,remaining binding,0%
C[C@@H](O)[C@H]1C(=O)N2C(C(=O)O)=C(S[C@@H]3CN[C@H](CNS(N)(=O)=O)C3)[C@H](C)[C@H]12,beta-lactamase RAD-1 (Riemerella anatipestifer),"substrate, continuous spectrophotometric hydrolysis",,30 °C,,Km,15 ± 1.8 µM
[O-][S+]1CCCCS1 (stereo not drawn),"SOD1 (Homo sapiens, UniProt P00441, G94A)",LC-MS,brain homogenate,"10 µM, 1 h, 37 °C",,SOD1 monomer fraction,98.1%
NCCCCC(=O)O,"SLC6A6 (Homo sapiens, UniProt P31641, G62A)","binding, microscale thermophoresis",,"977 nM, room temperature, added: 50 nM labelled protein",higher = more binding,normalised MST signal,-0.0216
COc1cc(-c2cncc3c2CN(C)Cc2cc(N4CCNCC4)ccc2-3)cc(OC)c1OC,"AKT1 (Homo sapiens, UniProt P31749)",kinase activity,,"1 µM, human enzyme, added: ATP 10 µM",reference: DMSO control,remaining activity,92%
CC[C@H](C)[C@@H]1NC(=O)[C@H]([C@@H](C)O)NC(=O)[C@@H]2CCCN2C(=O)[C@H](CC(C)C)NC(=O)[C@H](Cc2ccc(O)cc2)NC(=O)CSC[C@@H](C(N)=O)NC(=O)[C@H](CC(C)C)NC(=O)[C@@H]2CCCN2C(=O)[C@H](Cc2c[nH]cn2)NC(=O)[C@H](Cc2c[nH]c3ccccc23)NC(=O)[C@H](CC(C)C)NC(=O)[C@H](Cc2c[nH]cn2)NC(=O)CNC(=O)[C@H](C(C)C)NC(=O)CNC(=O)[C@H]([C@@H](C)O)NC1=O,"Vacuolar protein sorting-associated protein 29 (VPS29, Homo sapiens, UniProt Q9UBQ0)","binding, ITC",,"25 °C, protein alone",,ΔH,-9.1 ± 1.6 kcal/mol
Cn1cc(-c2ccc(-c3cncc(Cl)c3N3CCC4(CCNC4=O)CC3)cc2)cn1,COLO 205,"gene expression, microarray, item: HOXA4 mRNA",,"concentration not given, 6 h",reference: untreated cells,log2 fold change,-1.01
Nc1ncnc2c1ncn2[C@@H]1O[C@H](COP(=O)(O)OP(=O)(O)OP(=O)(O)O)[C@@H](O)[C@H]1O,"P2X purinoceptor 7 (P2rx7, Rattus norvegicus, UniProt Q64663, Q143A)","ion current, agonist, two-electrode voltage clamp",Xenopus laevis oocytes,6 µM,reference: highest concentration response,normalized current,0.00873 and 0
[N-]=[N+]=NCC(=O)N[C@H]1[C@H]([C@H](O)[C@H](O)CO)O[C@@](OC[C@H]2O[C@@H](Oc3ccc([N+](=O)[O-])cc3)[C@H](O)[C@@H](O)[C@H]2O)(C(=O)O)C[C@@H]1O,"Sialidase-2 (Homo sapiens, UniProt Q9Y3R4)",substrate,,"10 min, pH 5.0, 37 °C",,kcat,0.13 ± 0.02 s⁻¹
Cc1ccc(N2CC(C(N)=O)CC2=O)cc1 (stereo not drawn),"Transcription intermediary factor 1-alpha, PHD-bromodomain (TRIM24, Homo sapiens, UniProt O15164)","binding, affinity selection mass spectrometry",,,reference: other proteins in batch,fold enrichment,1.13
NCC[C@H](O)C(=O)N[C@@H]1C[C@H](N)[C@@H](O[C@H]2O[C@H](CN)[C@@H](O)[C@H](O)[C@H]2O)[C@H](O)[C@H]1O[C@H]1O[C@H](CO)[C@@H](O)[C@H](N)[C@H]1O,"Albumin (ALB, Bos taurus, UniProt P02769)","binding, tryptophan fluorescence quenching",,"pH 7.4, 298 K",,ΔG°,-3.65 kcal/mol
c1ccc(C(NCc2cccnc2)(c2ccccc2)c2ccccc2)cc1,"KCNQ1 (Homo sapiens, UniProt P51787, E160R/R231E)","concentration-response, tail currents",,,,Hill coefficient,1.01
CC1(C)CN(CCCCC(=O)N[C@@H](CCC(=O)O)C(=O)N[C@@H](CCC(=O)O)C(=O)N[C@H](CCCCNC(=O)CCCCCCC(=O)NCCCC[C@H](NC(=O)N[C@@H](CCC(=O)O)C(=O)O)C(=O)O)C(=O)O)CC[N]2CC(C)(C)[S][Tc]2(=[O])[S]1 (stereo partly drawn) [technetium-99m labelled],"FOLH1 (Homo sapiens, UniProt Q04609)","radioligand, saturation binding",LNCaP,"1 h, 37 °C, added: [99mTc]TcO-6",,Bmax,10 ± 2.7 pmol/mg
CCOc1ccc(C(=O)CC(SCc2ccc(Cl)cc2)C(=O)O)cc1 (stereo not drawn),"PLEKHA3, PH domain (Homo sapiens, UniProt Q9HB20)",fluorescence polarization,,,reference: other family proteins over target,selectivity ratio,> 10 fold
COc1cc(N2CCC(N3CCN(C)CC3)CC2)ccc1Nc1ncc(Cl)c(Nc2ccccc2P(C)(C)=O)n1,"ALK tyrosine kinase receptor/Echinoderm microtubule-associated protein-like 4 (Homo sapiens, UniProt Q9HC35+Q9UM73)","degrader, immunoblotting, item: ALK tyrosine kinase receptor/Echinoderm microtubule-associated protein-like 4",Ba/F3 EML4-ALK,"concentration not given, 12 h, unit not given",reference: untreated,protein level,1.02 and 1 and 1.05
O=C(NCC1CCOCC1)c1ccc([C@H]2[C@@H](F)[C@@H](F)C[C@@H](F)[C@H]2F)cc1,,hepatocyte stability,cryopreserved rat hepatocytes,1 µM,,hepatic clearance,13 mL/min/kg
COc1cc(/C=C/c2ccc(O)cc2)cc(OC)c1,"O-methyltransferase (Sorghum bicolor, UniProt A0A1B6PFV1)",biolayer interferometry,,added: saturating SAH,,cooperativity factor σ,35.3
Nc1nc2c(ncn2[C@@H]2O[C@H](COP(=O)(O)O)[C@@H](O)[C@H]2O)c(=O)[nH]1,"GUK1 (Homo sapiens, UniProt Q16774)","enzyme activity, NADH-coupled",,"500 µM, added: KCl 10 mM",,reaction velocity,0.113 µM/s and 0.1 µM/s and 0.104 µM/s
O=c1cc(-c2ccc([N+](=O)[O-])cc2)[nH]c2c(-c3ccc(Cl)cc3)c(Cc3ccccc3)nn12,"Cytokine receptor-like factor 3 (CRLF3, Homo sapiens, UniProt Q8IUI8)","thermal stability, binder, thermal proteome profiling","RD, cell lysate","50 µM, 0.5% DMSO",reference: DMSO vehicle,melting temperature shift,6.6 °C
O=C(Cc1cccnc1)Nc1ccc(C2CCCCC2)cc1,,,cryopreserved rat hepatocytes,1 µM,,hepatic clearance,46 mL/min/kg
CC[C@H](C)[C@H](NC(=O)[C@H](Cc1ccccc1)NC(=O)[C@H](CCC(=O)O)NC(=O)[C@H](CCCNC(=N)N)NC(=O)[C@H](C)NC(=O)[C@H](C)NC(=O)[C@H](CCC(N)=O)NC(=O)[C@H](CCC(=O)O)NC(=O)[C@H](CCC(=O)O)NC(=O)[C@H](CC(C)C)NC(=O)[C@H](Cc1ccc(O)cc1)NC(=O)[C@H](CO)NC(=O)[C@H](CO)NC(=O)[C@@H](NC(=O)[C@H](CC(=O)O)NC(=O)[C@H](CO)NC(=O)[C@@H](NC(=O)[C@H](Cc1ccccc1)NC(=O)[C@@H](NC(=O)CNC(=O)[C@H](CCC(=O)O)NC(=O)[C@H](C)NC(=O)CCc1cnc[nH]1)[C@@H](C)O)[C@@H](C)O)C(C)C)C(=O)N[C@@H](C)C(=O)N[C@@H](Cc1c[nH]c2ccccc12)C(=O)N[C@@H](CC(C)C)C(=O)N[C@H](C(=O)N[C@@H](CCCCNC(=O)COCCOCCNC(=O)COCCOCCNC(=O)CC[C@H](NC(=O)CCCCCCCCCCCCCCCCC(=O)O)C(=O)O)C(=O)NCC(=O)N[C@@H](CCCNC(=N)N)C(=O)N[C@@H](CCCCNc1c(NCCCCCN(O)C(=O)CCC(=O)NCCCCCN(O)C(=O)CCC(=O)NCCCCCN(O)C(C)=O)c(=O)c1=O)C(=O)NCC(=O)NCC(=O)N[C@@H](CO)C(=O)N[C@@H](CCCCNc1c(NCCCCCN(O)C(=O)CCC(=O)NCCCCCN(O)C(=O)CCC(=O)NCCCCCN(O)C(C)=O)c(=O)c1=O)C(=O)O)C(C)C,"GLP1R (Homo sapiens, UniProt P43220)","agonist, CRE luciferase reporter",BHK cells,"Zr-loaded DFO conjugate, added: 0% HSA",reference: parent peptide,fold potency loss,3

# For quick reference, copied from above:
Compound,target or system,test,system,setting,scale,measurement,result
CC[C@H](C)[C@@H]1NC(=O)[C@H]([C@@H](C)O)NC(=O)[C@@H]2CCCN2C(=O)[C@H](CC(C)C)NC(=O)[C@H](Cc2ccc(O)cc2)NC(=O)CSC[C@@H](C(N)=O)NC(=O)[C@H](CC(C)C)NC(=O)[C@@H]2CCCN2C(=O)[C@H](Cc2c[nH]cn2)NC(=O)[C@H](Cc2c[nH]c3ccccc23)NC(=O)[C@H](CC(C)C)NC(=O)[C@H](Cc2c[nH]cn2)NC(=O)CNC(=O)[C@H](C(C)C)NC(=O)CNC(=O)[C@H]([C@@H](C)O)NC1=O,"Vacuolar protein sorting-associated protein 29 (VPS29, Homo sapiens, UniProt Q9UBQ0)","binding, ITC",,"25 °C, protein alone",,ΔH,-9.1 ± 1.6 kcal/mol
Cn1cc(-c2ccc(-c3cncc(Cl)c3N3CCC4(CCNC4=O)CC3)cc2)cn1,COLO 205,"gene expression, microarray, item: HOXA4 mRNA",,"concentration not given, 6 h",reference: untreated cells,log2 fold change,-1.01
Nc1ncnc2c1ncn2[C@@H]1O[C@H](COP(=O)(O)OP(=O)(O)OP(=O)(O)O)[C@@H](O)[C@H]1O,"P2X purinoceptor 7 (P2rx7, Rattus norvegicus, UniProt Q64663, Q143A)","ion current, agonist, two-electrode voltage clamp",Xenopus laevis oocytes,6 µM,reference: highest concentration response,normalized current,0.00873 and 0
[N-]=[N+]=NCC(=O)N[C@H]1[C@H]([C@H](O)[C@H](O)CO)O[C@@](OC[C@H]2O[C@@H](Oc3ccc([N+](=O)[O-])cc3)[C@H](O)[C@@H](O)[C@H]2O)(C(=O)O)C[C@@H]1O,"Sialidase-2 (Homo sapiens, UniProt Q9Y3R4)",substrate,,"10 min, pH 5.0, 37 °C",,kcat,0.13 ± 0.02 s⁻¹
